Assay results from different studies.
Numbers after ± are the reported error.

| SMILES | organism | test | test system | conditions | how to read | endpoint | result |
| --- | --- | --- | --- | --- | --- | --- | --- |
| O=[N+]([O-])c1ccc(N2CCN(CCC(O)c3ccc(F)cc3)CC2)c(C(F)(F)F)c1 (centres unmarked) | Salmonella typhimurium | genotoxicity, SOS/umu test | TA1535/pSK1002 | 0.016 mg/mL, 4 h, without S9, lower range | – | induction factor | 0.9 |
| N#C[C@@]1(n2ccc(N)nc2=O)O[C@H](CO)[C@@H](O)[C@H]1O | Salmonella typhimurium | – | TA1537 | 10 µM, without S9 | – | viability | 98% |
| CCn1c(-c2nonc2N)nc2c(C#CC(C)(C)O)ncc(OC[C@H]3CCCNC3)c21 | human coronavirus OC43 | virus-induced cell killing | MRC-5 | maximum over 10 doses | – | maximum inhibition | 0% |
| CC(C)N(C)N=O | Salmonella typhimurium | mutagenicity, Ames plate incorporation | TA100 | 2500 µg/plate, 3 d, without S9, methanol | – | revertant colonies per plate | 169 ± 12 |
| COCCn1c2c([n+](Cc3cnccn3)c1C)C(=O)c1ccccc1C2=O | human coronavirus OC43 | virus-induced cell killing | MRC-5 | maximum over 10 doses | – | maximum inhibition | 0% |
| O=[N+]([O-])c1ccc(N2CCC(NCCC(O)c3ccc(F)c4ccccc34)CC2)c(C(F)(F)F)c1 (centres unmarked) | Salmonella typhimurium | genotoxicity, SOS/umu test | TA1535/pSK1002 | 0.002 mg/mL, 4 h, with S9, lower range | – | induction factor | 1 |
| COc1cccc(-c2n[nH]c(SCc3ccccn3)n2)c1OC | Salmonella typhimurium | Ames test, preincubation | TA100 | 0.063 mg/plate, with rat liver S9 | – | revertant colonies per plate | 143 |
| CNC(=O)c1c(N(C)N=O)ncn1C | Salmonella typhimurium | plate incorporation | TA1535, water | 500 µg/plate, without S9 | – | revertant colonies per plate | 33 ± 3 |
| OC(CCN1CC=C(c2ccc(F)cc2)CC1)c1ccc(F)c2ccccc12 (centres unmarked) | Salmonella typhimurium | genotoxicity, SOS/umu test | TA1535/pSK1002 | 0.031 mg/mL, 4 h, without S9, lower range | – | induction factor | 1.5 |
| CC(=O)N1CCC(C(=O)N2CCN3C(=O)c4cc(-c5ccccc5)ccc4NC(=O)C3C2)CC1 (centres unmarked) | Salmonella typhimurium | – | TA1537 | 158 µg/plate, added: rat liver S9 | relative to: vehicle | fold increase in revertants | 1.2 |
| CN(N=O)c1ccc(F)cc1 | Salmonella typhimurium | mutagenicity, Ames plate incorporation | TA1537 | 50 µg/plate, 3 d, without S9, methanol | – | revertant colonies per plate | 10.7 ± 4 |
| Fc1ccc(C2=CCNCC2)cc1 | Salmonella typhimurium | SOS/umu test | TA1535/pSK1002 | 0.5 mg/mL, 4 h, without S9, full range | – | survival | 98.8% |
| CN(CC(C)(C)C)N=O | Salmonella typhimurium | mutagenicity, Ames plate incorporation | TA1537 | 500 µg/plate, without S9, methanol | – | revertant colonies per plate | 12 ± 5 |
| Cc1cc(C(=O)NC(C)(C)COc2cccc3c2C(N)=NS(=O)(=O)N3)cc(C)n1 | Salmonella typhimurium | Ames test, initial | TA1535 | 1.50 µg/plate | relative to: solvent control | revertant ratio | 1.3 |

A few entries again:
| SMILES | organism | test | test system | conditions | how to read | endpoint | result |
| --- | --- | --- | --- | --- | --- | --- | --- |
| CN(CC(C)(C)C)N=O | Salmonella typhimurium | mutagenicity, Ames plate incorporation | TA1537 | 500 µg/plate, without S9, methanol | – | revertant colonies per plate | 12 ± 5 |
